Experimental data of several laboratories.
Each line is one published result; not all experiments were run side by side. ± gives the spread as reported.
Cell line: U-87 MG

For `N#Cc1cccc(/C=C/C(=O)c2ccc(O)cc2)c1`, the fold change was 34.5 (measured: OTUD1; concentration not given; baseline: untreated).
`N#C[C@@H]1CC(F)(F)CN1C(=O)CNC(=O)c1ccnc2c(NC(=O)[C@H](CCCCNC(=O)CCOCCOCCOCCOCCOCCOCCNC(=O)CN3CCN(CC(=O)[O-])CCN(CC(=O)[O-])CCN(CC(=O)[O-])CC3)NC(=O)CCCc3ccc(I)cc3)cccc12.[177Lu+3]` gave a cell uptake of 9.73 ± 0.51% (4 h; baseline: added dose).
`Nc1nc2cnc(C(=O)N3CCOC[C@@H]3c3ccc(C(F)(F)F)cc3)cc2c2c1COC2` has an IC50 of 357 nM.
For `COc1cc(/C=C/c2cc(-[c-]3cccc3)[nH]n2)ccc1O.[Fe+2].c1cc[cH-]c1`, the inhibition was about 60% (mitochondrial activity, MTT; 12.5 µM, 48 h).
The IC50 of `CC(C)c1ccc(N(C)c2ccc3c(c2)OCC[C@H]3CNc2cnccc2C(=O)O)cc1` is reported as 14.7 nM (cell growth or viability, ATP luminescence; 7 days).
With `Cn1ncc(-c2ccc3c(=O)[nH]nc(CN)c3c2)c1-c1c(F)c(Cl)cc(OC2CC2)c1C#N` the IC50 was 50 nM (cell viability, inhibitor, CellTiter-Glo; 120 h).
`CCOc1cncc(-c2ccc(NC(=O)C3(c4ccnc(NS(=O)(=O)C5CC5)n4)CCOCC3)nc2)n1` gave an IC50 of 10000 nM (cell growth or viability, ATP luminescence; 72 h).
For `COc1ccc(CNc2ccc3c(c2)S(=O)(=O)C=C3)cc1`, the viability was 65% (resazurin; 5 µM, 24 h).
`CNS(=O)(=O)Nc1nccc(Cc2c(C)c3ccc(Oc4ncccc4F)cc3oc2=O)c1F` gave an IC50 of 181 nM (cell viability, inhibitor, CellTiter-Glo; 7 days).
With `CN(C)c1ccc(/C=C/c2cc(/C=C3\Sc4ccccc4N3CCCN3CCCC3)c3ccccc3[n+]2C)cc1` the IC50 was 5200 nM (cell growth or viability, MTT; 36 h).
`CCN(C(=O)c1cc(F)ccc1Oc1nncnc1N1CCC2(C1)CN([C@H](CCCN(C)CCOC)C(C)C)C2)C(C)C` has a GI50 of over 10000 nM (72 h).
For `C=CCOCO[C@H](C(=O)NC[C@@H]1C[C@@H](OC)C(C)(C)[C@@H](C[C@@H](COC)OC)O1)[C@@]1(OC)CC(=C)[C@@H](C)[C@@H](C)O1`, the IC50 was 1230 ± 329 nM (cell viability, sulforhodamine B; 72 h, 37 °C, added: H2O2 100 µM).
The IC50 of `COc1cccc(-c2onc3nc(Nc4ccc(S(N)(=O)=O)cc4)sc23)c1O` is reported as 1150 nM (MTT).
The GI50 of `O=C(CCl)c1ccccc1Nc1cccc(C(F)(F)F)c1` is reported as 7710 nM (cell growth or viability, SRB; 48 h).

Repeated from above:
For `COc1ccc(CNc2ccc3c(c2)S(=O)(=O)C=C3)cc1`, the viability was 65% (resazurin; 5 µM, 24 h).
